# Experimental data from different studies.
# Numbered parts are unrelated; each lists some results of a single study. Positions count from the first letter of the parent shown.

# Series 1 — technique: RNA Bind-n-Seq; molecule type: RNA; medium: in vitro; concentration: 100 nM; baseline: input RNA pool; reading: higher = stronger binding
# Target: RING finger protein unkempt homolog, zinc fingers 1-6, SBP tag (UNK, Homo sapiens, UniProt Q9C0B0, residues 30-357)
# UniProt Q9C0B0, sequence (30-357, looked up): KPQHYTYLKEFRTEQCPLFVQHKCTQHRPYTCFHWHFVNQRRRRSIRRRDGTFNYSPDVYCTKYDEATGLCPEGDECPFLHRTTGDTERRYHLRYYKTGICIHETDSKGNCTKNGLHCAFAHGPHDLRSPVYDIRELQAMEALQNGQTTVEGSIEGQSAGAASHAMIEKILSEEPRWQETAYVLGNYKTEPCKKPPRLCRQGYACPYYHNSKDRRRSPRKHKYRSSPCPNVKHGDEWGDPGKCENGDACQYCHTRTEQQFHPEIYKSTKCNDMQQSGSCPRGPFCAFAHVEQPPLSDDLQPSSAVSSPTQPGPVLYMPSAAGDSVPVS
# Notes: RNA with constant flanks, vertebrate orthologous sites, ends assumed
# Constant ends, left off below: GGGAGUUCUACAGUCCGACGAUC … CAACAGAGGAUUGAGCAUCA
Sequence,bound/input enrichment
CACAUCUGGUGAUAUUUGGCCUGGCCUUUCGGCUUAUGAUAACAGUCCCAGAUCACCCCAUAGUCCUUCACCUAUUGCUACACCACCUAGUCAGAGUUCAUCUUGCUCUGAUGCUCCUAU,0.667 ratio
AAUCAGUAGAAUUCCAUAAUACUAAAGUUGCAGUUGAAAGGAUAUCCAAGUAUGUGUUGGUAGUUACUAAAAGAAUUAUAGCUGUUAUUGCCUUGUAUUUAUAGCUCUUGUUUCAGGUUU,0.721 ratio
UAUUAGUGUCAUACCAGCAUAUUAACCUCUCGUCUGUGCACAGCUUCCAACGUUACUGUCUAGUUAGAUUUUUAUUUAAAAUAUGAAAAACUGCUUUUCCCAAGACGUUUUUUAAAAACA,1.31 ratio
GUGACUUUGGACGUCCGCUCCUGAUCUGCGCAGAUCCUGCUUAGUCCCCGACCUUGCAGGUUAAUUUUCUUUGCCCAGGCUCGAGGCCUCUGUCGCUACCAUGCUUCGCCAGAUCAUCAC,0.286 ratio
UAAAGCCAUCUUUUCACAUUUUCUGUAAAUAAUGGGUAGUCAUUUUUUACGUUUUCUUUUUAGUGCUGUUUUAACAAUGUGGAUAGACCAUAAAUGUACUUGCUGAACUCAUUCAUUUUU,0.935 ratio
GUUGAGCCAUGACCCCUAUAGGUUAGGUCAUGAUGCUUACAGGUUAGGACAGGACCCUUAUAGAUUAGGCCAUGAUCCCUACAGACUAACUCCUGAUCCCUACAGGAUGUCACCUAGACC,0.525 ratio
CCUCUUAAUCCCAUAUCUUCUGUUUCGUAGUGCUGAAGUCUUAAACUUAAGUUACUAUAUUAGUGACCUUAUUUUAAUUUUAGAGAUACCUUCAGUAUGAAUACUGUGAGCUUACAUGGA,0.771 ratio

# Series 2 — technique: protein-binding microarray; molecule type: double-stranded DNA, one strand shown; medium: in vitro; concentration: 250 nM; notes: 60-bp whole probe; with: salmon DNA 0.4 mg/ml; baseline: random background probes; reading: higher = stronger binding
# Target: Interferon regulatory factor 7, full length, phosphomimetic (IRF7, Homo sapiens, UniProt Q92985, residues 1-503, S101K/S471D/S472D/S475D/S476D/S477D/S483D/S484D/S487D)
# UniProt Q92985, sequence (whole entry, unmodified, looked up): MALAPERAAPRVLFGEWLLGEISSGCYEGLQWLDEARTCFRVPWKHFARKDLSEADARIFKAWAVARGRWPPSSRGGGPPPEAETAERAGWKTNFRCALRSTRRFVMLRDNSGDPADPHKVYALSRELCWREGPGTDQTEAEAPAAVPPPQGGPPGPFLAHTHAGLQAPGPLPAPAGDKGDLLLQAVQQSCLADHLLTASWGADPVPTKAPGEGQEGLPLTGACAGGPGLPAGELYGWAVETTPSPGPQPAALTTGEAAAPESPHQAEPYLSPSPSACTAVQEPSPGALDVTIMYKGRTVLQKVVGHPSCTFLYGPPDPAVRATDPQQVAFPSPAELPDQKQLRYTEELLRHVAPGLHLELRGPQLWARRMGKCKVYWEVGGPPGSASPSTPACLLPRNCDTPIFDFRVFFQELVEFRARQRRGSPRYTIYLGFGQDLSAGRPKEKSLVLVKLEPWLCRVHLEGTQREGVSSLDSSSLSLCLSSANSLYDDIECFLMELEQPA
# Constant ends, left off below: GCCTAGCAC … GTGCTAGGTCTTGATTCGCTTGACGCTGCTG
Sequence,log fluorescence
TTAGTACTGGGTATCGGTTA,0.987 z-score
CTGGAGAGACGGAGTCTCCA,-0.837 z-score
GAGGGACTGCTTCTCCTGAC,-0.281 z-score
GCCGGTCTCGGTCTCGGGAC,1.03 z-score
TTAGGTTTCGGTCTAGGTTA,8.59 z-score
GACGGTTTCCTTATCCGGAC,3.65 z-score
TCCAGCCTGTTTCCAGCAGG,-0.105 z-score
GAAGATTTCAGTTCCGAGAC,0.688 z-score
GACTATCTCAGTCTCGAGAC,0.981 z-score
GACGGTTTCCTTCTCATGAC,1.89 z-score
CTAGATTTCAGTCTCGATTA,2.22 z-score
TCACCCCTTGCTTTCCAACT,0.514 z-score

# Series 3 — technique: RNA Bind-n-Seq; molecule type: RNA; medium: in vitro; concentration: 200 nM; notes: whole 134-nt RNA, ends assumed; with: 150 mM KCl; baseline: input library; reading: higher = stronger binding
# Target: Ras GTPase-activating protein-binding protein 1, full length (G3BP1, Homo sapiens, UniProt Q13283)
# UniProt Q13283, sequence (whole entry, looked up): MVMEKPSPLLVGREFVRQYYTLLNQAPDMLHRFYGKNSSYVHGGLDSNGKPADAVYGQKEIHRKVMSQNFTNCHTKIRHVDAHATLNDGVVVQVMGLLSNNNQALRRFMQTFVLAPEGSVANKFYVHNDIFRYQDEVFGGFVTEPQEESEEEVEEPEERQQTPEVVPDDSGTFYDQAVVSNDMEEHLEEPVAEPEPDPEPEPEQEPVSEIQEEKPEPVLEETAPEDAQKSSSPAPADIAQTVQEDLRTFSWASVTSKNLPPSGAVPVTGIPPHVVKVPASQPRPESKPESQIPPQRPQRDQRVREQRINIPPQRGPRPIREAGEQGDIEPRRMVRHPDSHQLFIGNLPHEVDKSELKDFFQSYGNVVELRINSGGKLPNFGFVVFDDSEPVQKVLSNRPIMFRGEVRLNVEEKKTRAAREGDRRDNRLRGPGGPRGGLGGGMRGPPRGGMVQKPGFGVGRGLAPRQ
# Constant ends, left off below: GGGAGUUCUACAGUCCGACGAUC … UGGAAUUCUCGGGUGUCAAGG
Sequence,log2 enrichment
UCCUGUGCUACACAUCGUAUGUACCGAAUCGGCCCCCCCGGCCCCCCCGGGCCCCCCCGGAAAGUAUUAUGUUACGCCGUUCGGAUCUGC,0.385
CAAGUCCUGUGCUACACAUCGUAUGUACCGAAUCGGAAAAAGGUUUUUUUGGAGGAAAGUAUUAUGUUACGCCGUUCGGAUCUGCACUUC,-1.24
UCCUCAAGUCCUGUGCUACACAUCGUAUGUACCGAAUCGGUGGUGGAAAGGAAAGUAUUAUGUUACGCCGUUCGGAUCUGCACUUCCAGC,-0.396
UCCUGUGCUACACAUCGUAUGUACCGAAUCGGGGAAAAAGGGGAAAAAGGGAAAAAGGGGAAAGUAUUAUGUUACGCCGUUCGGAUCUGC,0.219
UGGCCCUGGUGGCAUGCGGGGAGGAAGAGGUGGCCUCAUGGAUCGUGGUGGUCCCGGUGGAAUGUUCAGAGGUGGCCGUGGAGGAGACAG,0.24
GUCCUGUGCUACACAUCGUAUGUACCGAAUCGGGAAAAAAGGAAAAAAGGGAAAAAAGGAAAGUAUUAUGUUACGCCGUUCGGAUCUGCA,-0.674
AAGUCCUGUGCUACACAUCGUAUGUACCGAAUCGGAAAAAGGAAAAAAAGGAAAGGAAAGUAUUAUGUUACGCCGUUCGGAUCUGCACUU,-1.33
GCAGGAAGUAAAAACAAAUGGAAAUGCUUCGGAUAGUGGAAGGGGUGGGGGUUGCUAAGGAAAGGGUGGGAUGGGAGUGGGUAAAGAGUU,0.811

# Series 4 — target: CCNE1, cyclin fold, Cln2 fusion (human); technique: yeast growth competition, sequencing; medium: yeast; notes: strong parent motif; baseline: not given; reading: higher = stronger binding
# Starting sequence: CDKN1A docking peptide (human); SKACRRLFGPVDS
Substitution,normalised enrichment score
F8P,-0.0248
C4A,2.4
P10R,3.43
R5K,2.33
L7E,-0.264
P10L,3.38
V11C,5.56
R5N,0.119
A3D,0.102
F8T,-0.381
V11S,5.53
C4T,1.92
G9T,5.63

# Repeated from above (series 4):
Substitution,normalised enrichment score
P10L,3.38
F8P,-0.0248
A3D,0.102
R5K,2.33
L7E,-0.264
P10R,3.43
